# Measured values from different studies.
# Parts stem from different laboratories: compare values within a part only. Substitutions count along the parent as printed.

# Set 1
# Target: Hepatocyte nuclear factor 3-alpha (Foxa1, Mus musculus, UniProt P35582, residues 1-468, full length assumed)
# Method: EMSA with sequencing
# Form: double-stranded DNA, one strand shown
# Matrix: in vitro
# Tested at: 10 and 20 nM
# Setting: whole designed probe, mean of two concentrations, ends assumed
# Baseline: negative control set to 0
# Reading: higher = stronger binding
# All sequences stand within: GTGAGCGGTGCCCATTGATGGGGAAC … TTTCACTGGGATCGTGGGGAC
# Target sequence (chain): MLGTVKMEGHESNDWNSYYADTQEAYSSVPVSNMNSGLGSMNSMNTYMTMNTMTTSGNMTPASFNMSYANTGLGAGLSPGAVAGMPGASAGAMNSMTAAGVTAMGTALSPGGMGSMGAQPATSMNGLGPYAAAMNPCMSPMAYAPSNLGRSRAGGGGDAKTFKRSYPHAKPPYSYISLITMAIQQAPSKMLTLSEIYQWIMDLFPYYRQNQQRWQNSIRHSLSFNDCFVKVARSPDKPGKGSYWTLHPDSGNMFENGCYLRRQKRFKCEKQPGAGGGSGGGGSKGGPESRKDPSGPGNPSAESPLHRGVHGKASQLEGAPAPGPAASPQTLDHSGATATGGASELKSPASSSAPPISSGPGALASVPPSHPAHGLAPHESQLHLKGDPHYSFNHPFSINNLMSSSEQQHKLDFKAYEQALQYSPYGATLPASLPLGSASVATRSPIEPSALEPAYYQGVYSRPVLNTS
Oligonucleotide,normalised bound fraction [ratio]
TAATGTATTATTTAGGAATCTACTTATGGGACCCATATCCATGAGAAACGTGAAGAGCGAGAAGCAAGATTCTGTAACACTGTCCACGATATTGTAATCTGAGGAGGCAGGGGTCTCATTCCTGTCTTTGCTCTTGGAAGGGCTCAGGAGCTGCTCTTGATTCTAGGTATGCCATTTCCTTTGTATTTAGGCG,0.0102
GTGTGTGCGCGCGCGTGTGTGTGTGTTTTCTTAAGCCGGGCTATTCAAACCCTGCTGCAATTCAATGATTCATCTCCGGTAAAGGGGCATAATGCAAATAAACGGATTGCAAACGGCGCGGTTCGCGCACTTTGCAGCCGGCCCGGTGGAGCAGCCAGTGCCGGATTTCTCCCTTTTTTTGCAGATCTGCAGA,0.359
TCACATCAAAGCCTCTGAGCTTAAATATTAGGCTATTTACCATGGCTGTGAGAGACGGGGAACAAAAAACAGTGTTTAGTTAAATCAACAGCTATGTTTACACTCTCTGTATAAACAGTGCAATGTCCTCAAAGAAATCACACAAGAAGGAACAGTAACTCCTGCCAACACACTGGTAAACTTGGCTCTGCCA,0.388
ATCTTCCCCCTCTTCCTTGCCCCTGACCAGTCCACCTGCTCCGTATTTGCAGATAGGAAAATAAATAAAGCCGGCATTCGTTAACCCTCTTCTGGCGCAAACTGCTGTTTGCTCTGGATGAATCATGGTCCTTTGGCGACGCCAGGCTCCGGGAGAGCAAAGCACCGTGTCAGGGCCATGATCCGGGGTGGCC,0.341
ATCTTCCCCCTCTTCCTTGCCCCACCAGCTCACCTTCCCGGGTTATTTGCACAAAGGAAAATAAATAAAGCCGGCATTCGTTAACGCAGTTCTGGCGCAAACTGCTGTTTGCTCTGCATGAATCATGGTCCTTACGCGACGCCAGGCTCCGGGAGAGCAAAGCACCGTGTCAGGCGCATGATCCGGGCTCGCC,0.383
GGAGTTATCAGGAGACATTTTATGGTGAACATGGATATAAGTTTGTTCCTGAAGGATGCAGGGAATTCAGTAACACAGAAAAACAGTTCAAAGTAAACATGAACAAAACTCCAGAGATGGGTACACAGATGTGTAAAGATGGAGTTAGGTGGGCTACATGTAGATGATGAAGCCCACATATGTCACCAAAGCA,0.373
ATCTTCCCCCTCTTCCTTGCCCCACCAGCTCACCTTCCCGGGTTATTTGCAGATAGGAAAATAAATAAAGCCGGCATTCGTTAACCCTCTTCTGGCGCAAACTGCTGTTTGCTCTGGATGAATCATGGTCCTTTGGCGATGCGGCACGACCGGGGACCAAAGCACCGTGTCAGGGCCATGATCCGGGGTGGCC,0.361
CTTTGAGTTTTCAGAGTGACTCAACACAGTTGAACTATGAATCACTTCAGTATTGTCTGTGCACACCAAAGCCCTGGCATATGGAGCAGGTGTGTACACAAGAAAGCTCTTTCCCAGCCCTGAGCTCTCAGAGCTTTCCCTAGGTGTGTGATGAGGCCACTTTCCCCCATCACTTCCCCAAGTCTAGATGTCC,0.181

# Set 2
# Target: RING finger protein unkempt homolog, zinc fingers 1-6, GST-SBP tag (UNK, Homo sapiens, UniProt Q9C0B0, residues 30-357)
# Sequence of UniProt Q9C0B0 (30-357, looked up): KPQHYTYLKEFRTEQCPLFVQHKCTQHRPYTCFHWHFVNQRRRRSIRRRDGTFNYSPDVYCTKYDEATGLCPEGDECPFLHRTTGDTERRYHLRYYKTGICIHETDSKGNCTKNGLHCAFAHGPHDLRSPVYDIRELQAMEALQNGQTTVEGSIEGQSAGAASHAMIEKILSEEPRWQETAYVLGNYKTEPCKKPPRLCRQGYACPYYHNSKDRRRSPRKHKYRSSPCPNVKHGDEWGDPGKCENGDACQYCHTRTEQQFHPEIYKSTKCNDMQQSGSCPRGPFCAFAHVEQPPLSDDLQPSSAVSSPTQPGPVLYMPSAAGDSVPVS
# Method: RNA Bind-n-Seq
# Form: RNA
# Matrix: in vitro
# Tested at: not given
# Setting: RNA with constant flanks, ends assumed
# Baseline: input RNA pool
# Reading: higher = stronger binding
# All sequences stand within: GGGAGUUCUACAGUCCGACGAUC … CAACAGAGGAUUGAGCAUCA
Oligonucleotide,bound/input enrichment
CUAGUGCCAUGGGAACCAGGUCUGAAAAAGUAGAGAGAAGUGAAAGUAGAGUCUGGGAAGCCGCUGCCUAUAACUGAGACUAGACGGAAAAGGAAUACUCGUGUAUUUUAAGAUAUGAAU,1.13 ratio
AAUAGAGGAUUAUAUUCAAUUGAAGUGCUGGAGCUCUUCUGAUAUUAUCAAUUCUCCUUCACCGACAUUUUAUAAAGCUCUUUUAUGUGAACUCUUGCUUCAUCCAGGCAAGAACGGUGU,1.2 ratio
GACAAAAAAGCAGAAAUUCUAAUUAACAAGACACAUAAGCAGCAGUUUAAUAAACUCAUUACCCGCCAGGCUGUGCAUGUUACAACUCAUUCUAAAAAUGCUUCACACAGGGUUCCAAGA,0.336 ratio
GAUAAUGACCAUCUUCAACUUUCUGCAGAAGUCGUGGAAGGUAGUAGAUACCAGGAAUCAUCCGGCAAUACAGUAUUUGAGUUGGAAAACAGAGAGGCAGAGGCAUACACUGGUCUUUCA,0.186 ratio
AUUGAGCCUGUAUUUCCAGAGAACACAGAAAACUCUGAAAAAAUAUCCUUUCAGCUUCAUUCCGCUUUAACUUCAAAUUCAUCUUGGGUUCAGUGUCCCAGCCAUUUGGAACUCAUGAAU,0.167 ratio
GUGUGCUCUGAGGGAGGGUCCGAGCCAGCCGCUGUUUUGCCGGAGGAGCCCCUCAGGCCGCCGUAAGCAUUAAUAAUGUCUUUCAUCUUUGAGUGGAUCUACAAUGGCUUCAGCAGUGUG,0.159 ratio
CAAGUGCUGGCAGCUUUGCAGGAACGUCUUGACAACGUCUCUCACACUCCUUCUAGUUACACCGAAACUUUACCUAAAGCUGUCAAAAGAAGAAUUAAUGCCCUGAAGCAGCUCCAGGUG,0.437 ratio
ACACAAAUGUACCCUUACUCCAGUCUGUCCCUCACCUCCAUUGUCUAAGGUAUUGGACUCCGAUGCUUAUGUGUAAUAUGUUGAACCUGUCAGUUGCUGUCUUUUUCCUUCUUCGCAUUU,0.205 ratio
GAUGAGGUCCAGGCUAUUUGCCAACCUGAGGGAAAUUACUGCCCGUCAGCAGAGUUCAUUCCGCAGACUAUGUAGGCAAUGGAACCAAAGUUUUUUACUUUUUUUUUCCUGUUUUUUUUU,0.351 ratio
GAAGGCAAACCACUCUUCUCCCAGGCCUCUGCUCACCAGGGCUUGAGCUUUGCCUCAAGGACCGAAGGAUGUACAGAGGGGGCUCUUGGUUUGAGGACCACUUGAGCCGUUUUCUCAUCU,0.201 ratio
AAUGGAGUGACUUUGCGUAGGCUUGCGGGUGUCCAGGCCGCCUAGGCUGGAGAGAAAGCCAGCCGAAAUAGAUAUGAUUGUAGGAAAAGACCGGGAAGGUUUCUUUACCAACGGUUUGAC,0.674 ratio

# Set 3
# Target: CCNB1, cyclin fold, Cln2 fusion (human)
# Method: yeast growth competition, sequencing
# Matrix: yeast
# Setting: strong parent motif
# Baseline: not given
# Reading: higher = stronger binding
# Parent: RBL2 docking peptide (human); STTRRRLFVENDS
Substitution,normalised enrichment score
R6C,0.993
R5N,0.174
T2N,0.821
D12M,0.499
V9Q,0.152
V9E,0.87
R6A,0.542
D12S,0.572
T2I,0.595
R4G,-0.109
R6G,-0.121
N11H,0.666
R4L,-0.195
S1A,1.33
R4P,0.365
T3E,0.0071
R5F,0.175
R4D,-0.424
D12K,0.902
R6P,0.0262
L7D,0.61
D12T,0.0423
R5T,0.777
T3N,-0.184
R5I,0.739

# Set 4
# Target: Sal-like protein 4, full length isoform A (SALL4, Homo sapiens, UniProt Q9UJQ4, residues 1-1053)
# Sequence of UniProt Q9UJQ4 (whole entry, looked up): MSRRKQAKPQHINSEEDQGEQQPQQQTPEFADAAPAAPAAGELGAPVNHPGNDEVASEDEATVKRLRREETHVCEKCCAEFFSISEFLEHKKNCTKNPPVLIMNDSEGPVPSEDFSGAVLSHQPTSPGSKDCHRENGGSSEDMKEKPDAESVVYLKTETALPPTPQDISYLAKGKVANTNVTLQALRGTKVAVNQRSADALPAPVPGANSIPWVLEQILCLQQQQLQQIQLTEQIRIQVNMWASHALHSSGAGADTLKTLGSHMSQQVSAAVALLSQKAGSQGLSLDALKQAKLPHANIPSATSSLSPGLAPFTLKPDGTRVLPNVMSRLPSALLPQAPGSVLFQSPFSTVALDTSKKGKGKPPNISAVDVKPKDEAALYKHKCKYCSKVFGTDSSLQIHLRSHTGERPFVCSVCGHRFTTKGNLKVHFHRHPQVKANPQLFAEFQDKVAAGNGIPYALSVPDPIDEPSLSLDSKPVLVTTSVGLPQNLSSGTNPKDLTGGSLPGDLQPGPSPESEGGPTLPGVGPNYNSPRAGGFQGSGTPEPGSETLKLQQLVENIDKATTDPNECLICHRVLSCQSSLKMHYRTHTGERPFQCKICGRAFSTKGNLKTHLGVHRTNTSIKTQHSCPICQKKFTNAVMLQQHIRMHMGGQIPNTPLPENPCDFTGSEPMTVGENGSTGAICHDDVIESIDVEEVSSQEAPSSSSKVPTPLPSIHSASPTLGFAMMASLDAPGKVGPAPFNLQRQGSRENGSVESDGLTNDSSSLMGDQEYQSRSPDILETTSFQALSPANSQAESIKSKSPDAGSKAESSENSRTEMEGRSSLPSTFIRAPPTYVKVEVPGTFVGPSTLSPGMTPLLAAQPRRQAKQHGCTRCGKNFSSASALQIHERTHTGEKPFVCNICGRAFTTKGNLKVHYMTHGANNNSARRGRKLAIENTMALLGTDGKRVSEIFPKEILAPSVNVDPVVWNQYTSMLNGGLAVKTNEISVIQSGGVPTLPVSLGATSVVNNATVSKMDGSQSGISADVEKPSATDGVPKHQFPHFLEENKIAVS
# Method: universal PBM
# Form: double-stranded DNA, one strand shown
# Matrix: in vitro
# Tested at: 600 nM
# Setting: 8-mer, flanks averaged, mean of replicates
# Reading: higher = stronger binding
Oligonucleotide,E-score
CACTAGGA,-0.201
ACAATGTG,0.125
CAATTCCC,0.0666
CCTATTAA,0.227
GCGGTTAC,-0.106
CAAGAGTA,0.03
ACGTATCG,-0.00634
CCAGGATC,-0.218
CAAGGGGG,-0.204
GTTGTTTA,0.241
GGTGAACC,-0.197
GGGCCTGA,-0.31
AAATTCGG,0.0863
ACACAGAT,0.145
GAAGCTAC,-0.0533
ACACCCTG,-0.236
CTGGCGTA,-0.147
ACCCGTAT,-0.0607
CAGCGCGG,-0.357
AATCGCAT,0.0591
CTTGGAAC,-0.0796
ACCTACAC,-0.00765
TCATAAGA,0.34
ACTTCGGC,-0.0983
GACAGGAC,-0.206

# Set 5
# Target: Histone acetyltransferase KAT6A, both winged helices, GST fusion (KAT6A, Homo sapiens, UniProt Q92794, residues 1-181)
# Method: protein binding microarray
# Form: double-stranded DNA, one strand shown
# Matrix: in vitro
# Tested at: not given
# Setting: 8-mer, flanks averaged, mean of 2 arrays, mostly near background
# Baseline: not given
# Reading: higher = stronger binding
# Construct (chain): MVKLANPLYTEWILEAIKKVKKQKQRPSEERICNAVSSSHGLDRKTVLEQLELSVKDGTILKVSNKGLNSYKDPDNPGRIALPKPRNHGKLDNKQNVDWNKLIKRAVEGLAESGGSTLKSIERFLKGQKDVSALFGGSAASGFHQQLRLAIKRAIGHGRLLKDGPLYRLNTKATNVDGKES
Oligonucleotide,E-score
AAGGCTCT,-0.0748
AGGAGCAG,-0.079
GGAGCCAA,-0.147
AGAACAAC,0.0198
AAGAATGA,-0.145
CTCCTAGA,-0.166
AGCCAACG,-0.0121
GGCCGGTA,0.252
AACCTAGG,-0.093
CTAAGGGC,-0.118
AGCATAGA,-0.0337
CGGCGGAA,0.355
ACCCAACC,-0.137
ATAGACGC,0.194
ACCAAACG,0.0286
CACCCAAG,-0.0481
CACACGTG,0.0492
CGCGGGCC,0.314
CTAACACC,-0.129
TCTGCAGA,0.0641
CTTTAGAC,-0.075
CGACTCGA,-0.0789

# Set 6
# Target: Interferon regulatory factor 3, full length, phosphomimetic (IRF3, Homo sapiens, UniProt Q14653, residues 1-427, S386D/S396D/S398D/S402D/T404D/S405D)
# Method: protein-binding microarray
# Form: double-stranded DNA, one strand shown
# Matrix: in vitro
# Tested at: 2540 nM top
# Setting: 60-bp whole probe
# With: salmon DNA 0.4 mg/ml
# Baseline: random background probes
# Reading: higher = stronger binding
# All sequences stand within: GCCTAGCAC … GTCTTGATTCGCTTGACGCTGCTG
# Construct (chain): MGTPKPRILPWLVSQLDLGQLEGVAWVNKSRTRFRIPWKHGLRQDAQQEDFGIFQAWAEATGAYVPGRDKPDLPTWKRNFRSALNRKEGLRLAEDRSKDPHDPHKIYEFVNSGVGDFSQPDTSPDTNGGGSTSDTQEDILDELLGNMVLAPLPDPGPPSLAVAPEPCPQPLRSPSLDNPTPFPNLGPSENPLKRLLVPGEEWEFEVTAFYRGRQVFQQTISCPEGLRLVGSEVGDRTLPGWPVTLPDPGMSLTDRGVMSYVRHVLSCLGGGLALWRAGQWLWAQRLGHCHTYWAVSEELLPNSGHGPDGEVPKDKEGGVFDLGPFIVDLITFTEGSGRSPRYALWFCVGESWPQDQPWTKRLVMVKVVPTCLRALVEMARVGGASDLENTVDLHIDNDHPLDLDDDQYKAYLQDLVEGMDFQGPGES
Oligonucleotide,fitted relative affinity [z-score]
TCATTTCCATCTCTCAAACTGTGCTAG,5.33
TTACATATCAGTCTCGATTAGTGCTAG,1.61
TTAGGTTTCGACTTTCTGTTAGTGCTA,3.3
GACGGTTTTGGGTTTCGGGACGTGCTA,2.65
TTTGATATCGGGACTGGATTAGTGCTA,0.147
GACGGTTTCCTTTCCCTGACGTGCTAG,10.4
GACGGTTTCGGAACTGGGGACGTGCTA,7.64
TTAGGACTGCTATTCCTTTAGTGCTAG,-0.262
GACGGACTGAGGTATCGGGACGTGCTA,-0.152
TCAGTTTTCTCTCCCATACTGTGCTAG,2.13
TTAGATATCAGCTTCGATTAGTGCTAG,0.194
GAGCAGAGGCTGATGTATGTGTGCTAG,-1.02
CCTTTTTTGTTGTTTTTTGGGTGCTAG,3.17
TTTTTTTTTTTTTTTTTGTAGTGCTAG,1.56
TCAAATCCCCTTCTACTACTGTGCTAG,1.98
TCACATTTCTGTTTTTGACTGTGCTAG,2.57
TCAGAAATCAGTATGTTACTGTGCTAG,0.236
TTAGATATCGGGTATCAATTAGTGCTA,0.329
